Experimental data from different studies.
Every numbered part comes from another study and shows a few of its results, in no order. Changes are numbered by the printed parent chain.
Chain of UniProt Q9FGV1 (whole entry, looked up): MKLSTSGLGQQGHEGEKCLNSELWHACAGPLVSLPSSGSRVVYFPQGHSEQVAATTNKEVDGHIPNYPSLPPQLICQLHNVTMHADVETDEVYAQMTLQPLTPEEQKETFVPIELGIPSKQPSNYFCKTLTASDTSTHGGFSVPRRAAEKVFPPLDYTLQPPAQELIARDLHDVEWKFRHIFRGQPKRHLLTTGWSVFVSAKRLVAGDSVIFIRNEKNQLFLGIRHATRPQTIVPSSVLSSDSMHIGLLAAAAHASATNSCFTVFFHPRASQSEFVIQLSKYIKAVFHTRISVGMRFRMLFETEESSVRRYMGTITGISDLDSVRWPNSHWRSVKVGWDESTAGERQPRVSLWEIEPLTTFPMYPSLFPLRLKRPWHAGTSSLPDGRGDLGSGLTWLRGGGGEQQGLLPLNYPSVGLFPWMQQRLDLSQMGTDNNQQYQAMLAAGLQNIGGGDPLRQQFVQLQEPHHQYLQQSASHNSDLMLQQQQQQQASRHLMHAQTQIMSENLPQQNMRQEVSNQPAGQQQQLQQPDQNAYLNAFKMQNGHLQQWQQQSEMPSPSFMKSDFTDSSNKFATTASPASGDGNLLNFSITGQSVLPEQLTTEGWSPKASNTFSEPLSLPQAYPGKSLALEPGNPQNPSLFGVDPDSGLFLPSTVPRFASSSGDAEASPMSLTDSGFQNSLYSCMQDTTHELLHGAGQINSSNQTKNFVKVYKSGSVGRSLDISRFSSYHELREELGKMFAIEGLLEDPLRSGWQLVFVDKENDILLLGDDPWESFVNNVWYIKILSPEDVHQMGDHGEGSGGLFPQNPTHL
Chain of UniProt Q9ZSY8 (whole entry, looked up): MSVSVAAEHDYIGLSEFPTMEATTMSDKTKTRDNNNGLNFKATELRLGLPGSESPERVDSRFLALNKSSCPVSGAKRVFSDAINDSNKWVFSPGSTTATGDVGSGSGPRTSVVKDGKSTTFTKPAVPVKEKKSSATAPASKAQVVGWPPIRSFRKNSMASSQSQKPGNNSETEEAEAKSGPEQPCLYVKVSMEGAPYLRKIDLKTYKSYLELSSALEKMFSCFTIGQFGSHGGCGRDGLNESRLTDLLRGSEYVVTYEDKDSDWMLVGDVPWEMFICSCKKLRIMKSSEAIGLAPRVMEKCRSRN
Chain of UniProt Q9FKM7 (whole entry, looked up): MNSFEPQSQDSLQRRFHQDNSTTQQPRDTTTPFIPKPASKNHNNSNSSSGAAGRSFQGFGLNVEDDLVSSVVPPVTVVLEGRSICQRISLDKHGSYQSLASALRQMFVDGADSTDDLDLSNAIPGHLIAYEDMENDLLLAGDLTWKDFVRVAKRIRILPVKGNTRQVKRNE
Chain of UniProt Q9C5X0 (whole entry, looked up): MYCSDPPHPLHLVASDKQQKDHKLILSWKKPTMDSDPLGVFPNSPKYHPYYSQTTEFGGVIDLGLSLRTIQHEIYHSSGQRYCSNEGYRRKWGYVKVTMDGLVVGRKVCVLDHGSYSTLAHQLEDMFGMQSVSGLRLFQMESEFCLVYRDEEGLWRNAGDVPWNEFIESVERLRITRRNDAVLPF
Chain of UniProt O24410 (whole entry, looked up): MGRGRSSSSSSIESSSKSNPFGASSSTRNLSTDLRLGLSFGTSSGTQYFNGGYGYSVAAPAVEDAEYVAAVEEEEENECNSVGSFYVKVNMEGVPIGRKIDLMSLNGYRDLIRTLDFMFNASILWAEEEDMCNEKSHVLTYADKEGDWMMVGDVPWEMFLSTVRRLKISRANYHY
Chain of UniProt O24409 (whole entry, looked up): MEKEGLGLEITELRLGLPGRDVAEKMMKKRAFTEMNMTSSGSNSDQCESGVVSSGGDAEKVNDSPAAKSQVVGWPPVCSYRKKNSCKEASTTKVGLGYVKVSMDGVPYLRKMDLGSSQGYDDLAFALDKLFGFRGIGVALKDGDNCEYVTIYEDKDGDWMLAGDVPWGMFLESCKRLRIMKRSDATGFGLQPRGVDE
Chain of UniProt Q9ZTX8 (whole entry, looked up): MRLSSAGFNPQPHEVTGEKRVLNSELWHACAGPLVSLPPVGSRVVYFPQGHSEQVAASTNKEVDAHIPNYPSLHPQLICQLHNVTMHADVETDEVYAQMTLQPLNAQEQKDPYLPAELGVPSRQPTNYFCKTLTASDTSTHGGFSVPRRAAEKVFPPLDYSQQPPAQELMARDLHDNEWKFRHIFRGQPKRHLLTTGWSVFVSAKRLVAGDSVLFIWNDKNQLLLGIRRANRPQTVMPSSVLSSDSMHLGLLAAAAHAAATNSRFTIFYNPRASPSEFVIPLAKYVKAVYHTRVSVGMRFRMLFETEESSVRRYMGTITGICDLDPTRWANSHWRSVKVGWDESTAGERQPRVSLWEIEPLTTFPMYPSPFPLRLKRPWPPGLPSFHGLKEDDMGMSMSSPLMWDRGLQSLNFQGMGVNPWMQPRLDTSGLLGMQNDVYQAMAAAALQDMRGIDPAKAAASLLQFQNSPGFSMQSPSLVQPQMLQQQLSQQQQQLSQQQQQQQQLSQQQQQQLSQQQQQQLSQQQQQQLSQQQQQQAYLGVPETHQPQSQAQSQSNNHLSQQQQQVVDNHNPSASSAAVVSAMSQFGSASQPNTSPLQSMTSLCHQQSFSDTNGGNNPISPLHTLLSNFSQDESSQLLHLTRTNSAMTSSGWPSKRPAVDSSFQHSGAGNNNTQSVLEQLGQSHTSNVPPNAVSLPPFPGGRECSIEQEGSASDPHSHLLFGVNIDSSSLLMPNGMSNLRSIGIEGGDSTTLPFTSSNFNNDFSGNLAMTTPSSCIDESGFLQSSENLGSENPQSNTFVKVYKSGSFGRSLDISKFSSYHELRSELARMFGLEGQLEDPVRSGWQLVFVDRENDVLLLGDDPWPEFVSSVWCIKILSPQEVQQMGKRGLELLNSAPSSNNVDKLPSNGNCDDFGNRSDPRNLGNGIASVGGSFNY

Sample 1 — method: protein binding microarray; form: double-stranded DNA, one strand shown; matrix: in vitro; tested at: not given; relative to: not given; reading: higher = stronger binding; measurement: E-score
Target: Histone acetyltransferase KAT6A, winged helix 2, GST fusion (KAT6A, Homo sapiens, UniProt Q92794, residues 85-181)
Setting: 8-mer, flanks averaged, mean of 2 arrays, mostly near background
Construct (chain): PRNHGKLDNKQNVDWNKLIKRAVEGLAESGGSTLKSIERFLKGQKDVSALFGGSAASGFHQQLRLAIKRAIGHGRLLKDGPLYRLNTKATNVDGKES
AAGTTCGA: 0.128
TCGGTTCA: 0.0706
GCAAGACC: -0.017
CATCTTCA: -0.0633
AATCGTGG: 0.00551
CTACTCGA: 0.0086
ACCATCAA: -0.111
AAAATTTG: 0.00063

Sample 2 — Molecule: B1 (IAA17); method: two-hybrid; reading: higher = firmer interaction; measurement: positive tests
B1: IAA17 (Arabidopsis thaliana, UniProt P93830); chain MMGSVELNLRETELCLGLPGGDTVAPVTGNKRGFSETVDLKLNLNNEPANKEGSTTHDVVTFDSKEKSACPKDPAKPPAKAQVVGWPPVRSYRKNVMVSCQKSSGGPEAAAFVKVSMDGAPYLRKIDLRMYKSYDELSNALSNMFSSFTMGKHGGEEGMIDFMNERKLMDLVNSWDYVPSYEDKDGDWMLVGDVPWPMFVDTCKRLRLMKGSDAIGLAPRAMEKCKSRA
ARF6 790-935 (Arabidopsis thaliana, UniProt Q9ZTX8); relative to: out of 4 tests: 3
IAA27 (Arabidopsis thaliana, UniProt Q9ZSY8); relative to: out of 4 tests: 3
ARF8 699-811 (Arabidopsis thaliana, UniProt Q9FGV1); relative to: out of 4 tests: 4
IAA19 (Arabidopsis thaliana, UniProt O24409); relative to: out of 2 tests: 2
IAA20 (Arabidopsis thaliana, UniProt O24410); weak activation fusion; relative to: out of 4 tests: 2
IAA33 (Arabidopsis thaliana, UniProt Q9FKM7); relative to: out of 4 tests: 1
IAA34 (Arabidopsis thaliana, UniProt Q9C5X0); relative to: out of 4 tests: 4

Sample 3 — method: universal PBM; form: double-stranded DNA, one strand shown; matrix: in vitro; tested at: 600 nM; reading: higher = stronger binding; measurement: E-score
Target: Sal-like protein 4, full length isoform A (SALL4, Homo sapiens, UniProt Q9UJQ4, residues 1-1053)
Chain of UniProt Q9UJQ4 (whole entry, looked up): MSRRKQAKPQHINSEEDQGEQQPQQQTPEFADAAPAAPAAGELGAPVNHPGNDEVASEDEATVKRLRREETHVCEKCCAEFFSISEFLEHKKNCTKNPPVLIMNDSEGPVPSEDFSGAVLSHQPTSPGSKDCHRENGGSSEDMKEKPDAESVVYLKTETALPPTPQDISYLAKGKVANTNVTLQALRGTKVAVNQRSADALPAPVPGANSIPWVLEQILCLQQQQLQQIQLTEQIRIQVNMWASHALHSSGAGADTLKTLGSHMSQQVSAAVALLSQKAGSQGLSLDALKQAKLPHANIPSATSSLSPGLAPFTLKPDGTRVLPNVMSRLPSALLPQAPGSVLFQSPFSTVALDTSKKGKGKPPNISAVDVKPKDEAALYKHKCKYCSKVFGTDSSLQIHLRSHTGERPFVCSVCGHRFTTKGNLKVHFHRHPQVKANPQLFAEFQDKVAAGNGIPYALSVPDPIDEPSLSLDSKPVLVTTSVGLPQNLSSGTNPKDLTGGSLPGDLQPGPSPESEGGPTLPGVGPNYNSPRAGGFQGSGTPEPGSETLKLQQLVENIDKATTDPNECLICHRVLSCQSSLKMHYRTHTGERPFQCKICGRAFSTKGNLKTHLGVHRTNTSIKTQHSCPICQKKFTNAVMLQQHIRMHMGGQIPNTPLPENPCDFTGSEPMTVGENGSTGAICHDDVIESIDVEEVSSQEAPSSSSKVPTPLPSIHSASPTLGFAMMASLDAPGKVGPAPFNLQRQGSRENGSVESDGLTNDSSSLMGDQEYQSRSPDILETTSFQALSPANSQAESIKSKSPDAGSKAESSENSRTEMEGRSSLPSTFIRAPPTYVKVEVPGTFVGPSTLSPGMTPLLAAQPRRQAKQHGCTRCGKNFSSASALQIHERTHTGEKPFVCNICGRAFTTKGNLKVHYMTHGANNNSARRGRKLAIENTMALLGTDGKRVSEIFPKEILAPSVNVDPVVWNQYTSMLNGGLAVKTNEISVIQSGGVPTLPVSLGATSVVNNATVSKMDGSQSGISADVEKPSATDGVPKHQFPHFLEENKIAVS
Setting: 8-mer, flanks averaged, mean of replicates
GACCCGGA: -0.389
CACCCATC: -0.0122
AAGTACCA: 0.0678
CCCTACGC: -0.253
ACGCAACT: -0.0331
ATACCGAT: 0.0877
CAGCCAGG: -0.291
GGCATGAA: 0.0699

Sample 4 — target: CCNA1, cyclin fold, Cln2 fusion (human); method: yeast growth competition, sequencing; matrix: yeast; setting: strong parent motif; relative to: not given; reading: higher = stronger binding; measurement: normalised enrichment score
Starting sequence: viral docking peptide; TSVRRALFTGGSD; partner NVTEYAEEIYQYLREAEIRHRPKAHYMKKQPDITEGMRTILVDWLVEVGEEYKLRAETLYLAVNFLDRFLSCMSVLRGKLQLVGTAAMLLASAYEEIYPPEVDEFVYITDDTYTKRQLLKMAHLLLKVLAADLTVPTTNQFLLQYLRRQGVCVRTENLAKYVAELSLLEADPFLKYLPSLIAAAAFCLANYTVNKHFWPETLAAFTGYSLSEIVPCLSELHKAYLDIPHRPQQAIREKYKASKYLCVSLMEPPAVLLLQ
TSVRMALFTGGSD [R5M]: 0.252
TSVRRALFTGFSD [G11F]: 0.856
TSVRRAGFTGGSD [L7G]: -0.0856
TSVRRAAFTGGSD [L7A]: 0.103
TSVRRALFTGGKD [S12K]: 0.189
TSVRRALFTGHSD [G11H]: 1.18
TSVRRALFTMGSD [G10M]: 0.668
TSVRRALFTYGSD [G10Y]: 0.931
TSVRRTLFTGGSD [A6T]: 0.33
TSVERALFTGGSD [R4E]: 0.0417
TSVRRALFTGESD [G11E]: 1.15
TSVRRALRTGGSD [F8R]: -0.15
TSYRRALFTGGSD [V3Y]: 0.338
TSVRAAAFTGGSD [R5A L7A]: 0.118
TSVRKALLTGGSD [R5K F8L]: 0.033
TSVRRILFTGGSD [A6I]: 0.489
TSVRRALFTGGTD [S12T]: 0.901
TSVRRALFFGGSD [T9F]: 0.745
TDVRRALFTGGSD [S2D]: 0.813
TSVRRALFTGGID [S12I]: 1.01
TSVRRAYFTGGSD [L7Y]: 0.409
TSVNRALFTGGSD [R4N]: 0.29
TSVVRALFTGGSD [R4V]: -0.035
TSVRRALFTGPSD [G11P]: 1.44
TSVRWALFTGGSD [R5W]: -0.175

Sample 5 — target: CEP164, C-terminal peptide (human); method: DHFR complementation, deep sequencing; matrix: yeast; relative to: wild type; reading: higher = weaker binding; measurement: binding free energy change
Setting: single substitutions, model-inferred values
Starting sequence: PDZK1, PDZ domain 2 (human); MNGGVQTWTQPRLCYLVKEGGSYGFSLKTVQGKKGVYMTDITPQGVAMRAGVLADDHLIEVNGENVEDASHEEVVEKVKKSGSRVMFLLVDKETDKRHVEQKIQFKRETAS; partner HNRVKVYRF
R84M: 0.144 kcal/mol
E60M: 0.134 kcal/mol
K96Q: 0.0147 kcal/mol
W8Y: -0.0787 kcal/mol
I103N: -0.0511 kcal/mol
L89K: 1.74 kcal/mol
D56R: 1.45 kcal/mol
R84D: 0.123 kcal/mol

Excerpt of the above (sample 2):
ARF6 790-935 (Arabidopsis thaliana, UniProt Q9ZTX8); relative to: out of 4 tests: 3
IAA27 (Arabidopsis thaliana, UniProt Q9ZSY8); relative to: out of 4 tests: 3
ARF8 699-811 (Arabidopsis thaliana, UniProt Q9FGV1); relative to: out of 4 tests: 4
IAA19 (Arabidopsis thaliana, UniProt O24409); relative to: out of 2 tests: 2
IAA20 (Arabidopsis thaliana, UniProt O24410); weak activation fusion; relative to: out of 4 tests: 2
IAA33 (Arabidopsis thaliana, UniProt Q9FKM7); relative to: out of 4 tests: 1
IAA34 (Arabidopsis thaliana, UniProt Q9C5X0); relative to: out of 4 tests: 4
